Measured values from different studies.
Parts stem from different laboratories: compare values within a part only. Positions count from the first letter of the parent shown.

Sample 1 — technique: RNA Bind-n-Seq; molecule type: RNA; matrix: in vitro; tested at: 1 µM; setting: whole 134-nt RNA, ends assumed; together with: 150 mM KCl; baseline: input library; direction: higher = stronger binding
Target: Ras GTPase-activating protein-binding protein 1, RRM domain (G3BP1, Homo sapiens, UniProt Q13283)
Chain of UniProt Q13283 (whole entry, looked up): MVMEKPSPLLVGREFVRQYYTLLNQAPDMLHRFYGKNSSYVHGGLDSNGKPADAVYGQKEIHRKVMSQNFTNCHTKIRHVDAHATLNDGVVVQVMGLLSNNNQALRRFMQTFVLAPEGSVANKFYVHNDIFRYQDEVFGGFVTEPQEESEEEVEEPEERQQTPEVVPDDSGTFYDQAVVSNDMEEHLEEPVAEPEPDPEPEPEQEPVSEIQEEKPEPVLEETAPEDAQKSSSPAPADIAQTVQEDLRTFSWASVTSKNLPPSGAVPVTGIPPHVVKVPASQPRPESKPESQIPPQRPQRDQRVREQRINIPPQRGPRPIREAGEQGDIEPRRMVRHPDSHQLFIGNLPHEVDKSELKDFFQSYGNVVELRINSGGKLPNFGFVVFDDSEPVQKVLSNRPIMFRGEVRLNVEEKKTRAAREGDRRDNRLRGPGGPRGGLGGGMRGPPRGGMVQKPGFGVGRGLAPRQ
Constant ends, left off below: GGGAGUUCUACAGUCCGACGAUC … UGGAAUUCUCGGGUGUCAAGG
| Strand | log2 enrichment |
| --- | --- |
| UGGGAGGUGGAUUUUGUUCAUUUUUUUAGCUCAUUUCCAGGGGUGGGAAUUUUUUUUUAAUAUGUGUCAUGAAUAAAGUUGUUUUUGAAA | 1.03 |
| AGUCCUGUGCUACACAUCGUAUGUACCGAAUCGGGGAAAAGGGGAAAAGGAAAAGGGGAAAGUAUUAUGUUACGCCGUUCGGAUCUGCAC | 0.111 |
| AAGUCCUGUGCUACACAUCGUAUGUACCGAAUCGGGCCCCGGGGCCCCGGCCCCGGAAAGUAUUAUGUUACGCCGUUCGGAUCUGCACUU | -0.702 |
| AAGUCCUGUGCUACACAUCGUAUGUACCGAAUCGGGUUUUUGGGAAAAAGGGUGGGAAAGUAUUAUGUUACGCCGUUCGGAUCUGCACUU | 0.599 |
| UGCCCUCCGUGGAGUCUUUGUUUCGAAGUCCGAUAAAGGAAUCUCUAUUCCGGUCUUCUUCUAAAGAGUCUUUGGUACGAACAUCUUCCA | -0.216 |
| UAUGGACAAGCAUAAUGGAACAGACAGGUUUGUGAACCAGCAGUUUCAAGAGGAAAAGUUAAAUAAAUUGCAGAAGUUACUUAUUCUUUU | -0.0181 |
| UGGCCCUGGUGGCAUGCGGGGAGGAAGAGGUGGCCUCAUGGAUCGCGGUGGUCCCGGUGGAAUGUUCAGAGGUGGCCGUGGUGGAGACAG | 1.11 |
| UCCUGUGCUACACAUCGUAUGUACCGAAUCGGGUUUUUUUGGGUUUUUUUGGGUUUGGGAAAGUAUUAUGUUACGCCGUUCGGAUCUGCA | -0.215 |
| CCUGUGCUACACAUCGUAUGUACCGAAUCGGGCCCCCCCGGCCCCCCCGGCCCCCCCGGGAAAGUAUUAUGUUACGCCGUUCGGAUCUGC | -0.9 |

Sample 2 — target: CCND3, cyclin fold, Cln2 fusion (human); technique: yeast growth competition, sequencing; matrix: yeast; setting: weak parent motif; baseline: not given; direction: higher = stronger binding
Starting sequence: RBL1 docking peptide (human); GSAKRRLFGEDPP; partner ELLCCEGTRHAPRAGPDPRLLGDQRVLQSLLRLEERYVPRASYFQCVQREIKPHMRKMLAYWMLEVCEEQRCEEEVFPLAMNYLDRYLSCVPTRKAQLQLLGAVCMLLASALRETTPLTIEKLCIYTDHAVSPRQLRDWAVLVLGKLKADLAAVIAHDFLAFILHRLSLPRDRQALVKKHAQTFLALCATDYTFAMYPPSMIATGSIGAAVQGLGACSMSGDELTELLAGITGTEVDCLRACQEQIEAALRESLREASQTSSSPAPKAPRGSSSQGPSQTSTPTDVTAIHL
| Change | normalised enrichment score |
| --- | --- |
| GSAKRRLFGEDPN [P13N] | 0.135 |
| GMAKRRLFGEDPP [S2M] | 0.107 |
| GSAKRRLEGEDPP [F8E] | 0.0826 |
| GSAKRNLFGEDPP [R6N] | 0.131 |
| GSAKRRLFGTDPP [E10T] | 0.123 |
| GSAKRRLFWEDPP [G9W] | 0.209 |
| GSAKRRSFGEDPP [L7S] | -0.0156 |

Sample 3 — technique: RNA Bind-n-Seq; molecule type: RNA; matrix: in vitro; tested at: 365 nM; baseline: no-protein control; direction: higher = stronger binding
Target: RNA binding protein fox-1 homolog 2, RRM domain, GST-SBP tag (RBFOX2, Homo sapiens, UniProt O43251-10, residues 100-194)
Setting: natural RNA segment, single round, ends assumed
Constant ends, left off below: GGGAGUUCUACAGUCCGACGAUC … UGGAAUUCUCGGGUGCCAA
Construct (chain): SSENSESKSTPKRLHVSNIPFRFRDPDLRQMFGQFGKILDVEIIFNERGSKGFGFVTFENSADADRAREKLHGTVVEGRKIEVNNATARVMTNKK
| Strand | RBNS enrichment (R) |
| --- | --- |
| UUACUUUAUGGCAUGUGCUUUUCUCCACCGGAGGAGAGAGAGGCAAGUGUCUCCCUCAGCUUGUGUCCCUUUUUUCCUCCCCUUUCUGUCCUGGGCCUCUGUGUAGAGCA | 2.36 |
| AAUUUGAUAUGCUGUUUAGUCACUACAGUGCCCUCAAAGGGCAGAAGUUGCAGCCUUUUUUAUAUUGCCUGCCAAAAUUUGAAGUAUUAGAAGAAAGUGUGCCAUGAGAG | 0.913 |
| UUAAUGGAGUCUUGGACCCUUUCUUUCUCUGGGAUCCCUGCCCAGCACCUUCCUAUAGAGAUGACUUUAAAAGGAAAAAAAAAAAAAAAAAAACCCACAUGAUUUCAAGG | 0.642 |
| CUUGCUCCCGAGUUGGGGGGAGGGGGUGUGGCAACGUGCCCCCCGCAGAGGCCACGCAUGUUUGACCAAAGCCCUCAUUGUGGUCCGAGGACAGCCUUUUCCCCAGGCCU | 6.69 |
| UAUGUCUGUGAUAAUUGCUUUGACUUUAUUAUCAUGUAUUAAACAGUAAUAACAAUGGGACUUAGAGGAGGUAAACAUAACUUAUGUGCCUCAAACCAGCUAGUCCUGGA | 0.347 |
| AGCUCACAGAGCCGCGUCCCUCGAAGCCGUGAGCUACGCCAUUGAUUCUUUAAAAGCCAAGGUGCCCAUAUGGAAAAAGGGCUUGACUUAAACCUGUGAUAAGAUGUCUG | 0.435 |
| UCCUUAGUCCUUGUUUGCUUUCUAAACCAAACUGGGAACACAUACAACAUUCAUCAUUUUACAUCCAGCUUUUUCACUUGACUUGUUUUCUCUUAAGCAUUUCUCCAUGC | 0.516 |
| CCUAACCAGAUCUGAGCUGUGCUCACAAUAAUAAUAAUGAAAUCAGAUUCUUUGAUGCUGGACUCAGGAGGGAAAUCAUUAGCCAACUGUUGACUUACUUAUAGCUAGAU | 0.699 |

Single results of other studies
| Molecule | target | test | system | setting | scale | quantity | result |
| --- | --- | --- | --- | --- | --- | --- | --- |
| PhoQ, residues 284 288 289 292 302 303 TTSMTC | PhoP, residues 12 14 15 18 19 SYFRT (Escherichia coli, UniProt P23836) | Sort-seq, measured: YFP reporter | E. coli | PhoQ-PhoP variant library, together with: 10 µM Mg2+ | baseline: high Mg2+ state, higher = stronger signaling | fold induction | 4.43 |

Excerpt of the above (sample 1):
| Strand | log2 enrichment |
| --- | --- |
| UGCCCUCCGUGGAGUCUUUGUUUCGAAGUCCGAUAAAGGAAUCUCUAUUCCGGUCUUCUUCUAAAGAGUCUUUGGUACGAACAUCUUCCA | -0.216 |
